Measurements collected from several papers.
Each line is one published result; not all experiments were run side by side. ± marks the error that the study gave.

`C=C(c1ncc(C(=O)O)cn1)c1cc2c(cc1C)C(C)(C)CCC2(C)C` — result for “log2 fold change”: 0.39 (RNA sequencing, refers to: Dlx2 mRNA; rat, brain; dose not given, 24 h, single dose; relative to: vehicle).
`N[C@@H](CCC(=O)O)C(=O)N1CCC[C@H]1C(=O)NCC(=O)NCC(=O)O`: “ΔS‡ at 298.15 K” -83 ± 21 J/(mol·K) (diketopiperazine formation, transition state theory; 1-propanol; 70, 80, 90 °C, 0.5% acetic acid).
For `CCCCCCCCCCCCCCCC(=O)NCCCC[C@H](N)C(=O)N[C@@H](CC(=O)O)C(=O)N[C@H](C(=O)N[C@@H](Cc1c[nH]cn1)C(=O)N[C@@H](Cc1ccccc1)C(=O)N[C@@H](CCCNC(=N)N)C(=O)N[C@H](C(=O)N[C@@H](Cc1ccccc1)C(=O)N[C@@H](CCCNC(=N)N)C(=O)N[C@@H](CO)C(=O)N[C@@H](Cc1c[nH]cn1)C(=O)N[C@@H](CO)C(=O)N[C@@H](CC(=O)O)C(=O)N[C@@H](Cc1ccc(O)cc1)C(=O)N[C@@H](CCCNC(=N)N)C(=O)N[C@@H](CCCNC(=N)N)C(=O)N[C@H](C(=O)O)[C@@H](C)CC)[C@@H](C)O)[C@@H](C)O`, “final body weight” read 20.9 ± 0.2 g (C57BL/6J mouse, MCD diet; intraperitoneal, 0.6 nmol/g, 3 weeks, 3 times weekly).
With `FC(F)(F)Oc1ccc(/N=c2\oc3ccccc3cc2-c2ccccc2)cc1` the oedema reduction was 27.9 ± 2.5% (rat, formalin paw oedema; intraperitoneal, 10 mg/kg, 1 h).
`O=C1CCN(Cc2ccccc2)CC1C(C[N+](=O)[O-])c1ccccc1` (centres unmarked): “tail flick response” 46.8% (tail immersion test; BALB/c mice; ip, 50 mg/kg, 0.75 h).
With `CC1SC(N/N=C2\c3ccccc3-c3nc4cc(F)ccc4nc32)=NC1=O` (centres unmarked) the blood glucose was 357 ± 29.6 mg/dL (mice with STZ-induced diabetes; oral, 25 mg/kg, 144 h, day 6).
Under “time in target quadrant”, `CCOP(=O)(CC(=O)Nc1ccc(S(=O)(=O)N(CC(N)=O)c2ccc(N(CC(N)=O)S(=O)(=O)c3ccc(OC)cc3)c3ccccc23)cc1)OCC` is recorded as “increased” (Morris water maze probe trial; APP/PS1 mice; intragastric, 40 mg/kg, 60 days, lentivirus intracerebroventricular; relative to: untreated APP/PS1).
Under “Tcon cell proliferation”, `CCCC[C@H](NC(=O)[C@H](C)NC(=O)[C@H](CO)NC(=O)[C@H](CC(C)C)NC(=O)[C@H](CCCCN)NC(=O)[C@]1(C)CCCC=CCCCCCC[C@@](C)(NC(=O)[C@H](CCC(=O)O)NC(=O)[C@H](CC(C)C)NC(=O)[C@H](CO)NC(=O)[C@]2(C)CCCC=CCCCCCC[C@@](C)(NC(=O)[C@H](CS)NC(=O)[C@H](CCC(N)=O)NC(=O)[C@H](C)NC(=O)[C@H](CCCNC(=N)N)NC(C)=O)C(=O)N[C@@H](CC(C)C)C(=O)N[C@@H](CCC(N)=O)C(=O)N[C@@H](CCCNC(=N)N)C(=O)N[C@@H](CCC(=O)O)C(=O)N[C@@H](CCCC)C(=O)N[C@@H](C(C)C)C(=O)N2)C(=O)N[C@@H](CCC(N)=O)C(=O)N[C@@H](CC(C)C)C(=O)N[C@@H](C(C)C)C(=O)N[C@@H](CC(C)C)C(=O)N[C@@H](CCC(=O)O)C(=O)N[C@@H](CCCCN)C(=O)N1)C(=O)N[C@@H](CCC(N)=O)C(=O)N[C@@H](C)C(=O)N[C@@H](Cc1c[nH]cn1)C(N)=O` is recorded as 74.1% (Treg-mediated suppression, flow cytometry; Treg and Tcon cells, mouse; dose not given, 3 d, Treg:Tcon 1:1).
`Oc1ccc2nc1CNCCNCCNC2` — result for “log beta MHL”: 13.2 (pH-potentiometric titration; 298 K, I 0.15 M NaCl, with: Mg2+).
For `COc1ccc2c(c1)c(CC(=O)OCC(=O)c1ccccc1)c(C)n2C(=O)c1ccc(Cl)cc1`, “latency of nociceptive response” read 13.9 ± 1.32 s (hot plate test; BALB/c mice; 75 mg/kg, 30 min).
`CN1CCN(CC(=O)Nc2nccs2)CC1`: “inhibition in vivo” 61% (paw oedema; mouse; intraperitoneal, 200 µmol/kg).
Under “UV-vis absorption change”, `COc1cc(/N=N/c2ccc([N+](=O)[O-])cc2)ccc1N(CCS(=O)(=O)O)CCS(=O)(=O)O` is recorded as “no effect” (Cu2+ binding; aqueous HEPES buffer; concentration not given, pH 7.0, with: Cu2+ up to 0.5 mM).
Under “ΔS‡ at 298.15 K”, `N[C@@H](Cc1c[nH]cn1)C(=O)N1CCC[C@H]1C(=O)NCC(=O)NCC(=O)O` is recorded as -40 ± 1 J/(mol·K) (diketopiperazine formation, transition state theory; 1-propanol; 70, 80, 90 °C, 0.5% acetic acid).
`COc1ccc(C2CC(c3ccc(C)cc3)=Nc3ccccc3S2)cc1OC` (centres unmarked) has a blood glucose of 103 ± 4.13 mg/dL (oral glucose tolerance test; fasted normal rat, blood; oral, 10 mg/kg, 0 min, with: oral glucose 3 g/kg).
`C[C@H](NC(=O)COC(=O)[C@H](C)NC(=O)CO)C(=O)O`: “depolymerization rate constant” 22.7 h⁻¹ (water; pH 7, 50 °C).
`Cc1cccc(Cn2ncc3c4cc(F)c(CN(C)C)cc4n(C)c3c2=O)n1` — result for mRNA level: “decreased” (refers to: Mif; rd10 mouse, retina; intraperitoneal, 50 mg/kg at P14, P21; relative to: vehicle).
Under “log2 fold change”, `C=C(c1ccc(C(=O)O)c(F)c1)c1cc2c(cc1C)C(C)(C)C=CC2(C)C` is recorded as -1.45 (RNA sequencing, refers to: Mta2; rat, brain; dose not given, 24 h; relative to: vehicle).
`CCCCCCCCCCCCCCCC(=O)OCC(CSC[C@H](N)C(=O)N[C@@H](CO)C(=O)N[C@@H](CCCCN)C(=O)N[C@@H](CCCCN)C(=O)N[C@@H](CCCCN)C(=O)N[C@@H](CCCCN)C(=O)NCCCCCC(=O)N[C@@H](CCCCN)C(=O)N[C@@H](CC(C)C)C(=O)N[C@H](C(=O)N[C@@H](Cc1ccccc1)C(=O)N[C@@H](Cc1ccccc1)C(=O)N[C@@H](Cc1ccc2ccccc2c1)C(=O)O)C(C)C)OC(=O)CCCCCCCCCCCCCCC` (some centres unmarked) — result for “OC+ TS- plaque area”: “decreased” (APP/PS1 mouse; intracortical, dose not given, 5 d; relative to: vehicle).
`CC[C@H]1[C@@H](O)[C@@H]2[C@H](CC[C@]3(C)[C@@H]([C@H](C)CCOS(=O)(=O)[O-])CC[C@@H]23)[C@@]2(C)CC[C@@H](O)C[C@@H]12.[Na+]`: “whole-body fat mass” 39.4 ± 0.6% (EchoMRI; ob/ob NASH mouse model; oral, 10 mg/kg once daily, before treatment, baseline of 8 week study; relative to: body weight).
For `O=C(CCN1CCC(O)CC1)Nc1nc(-c2ccccc2)cs1`, “inhibition in vivo” read 47.5% (paw oedema; mouse; intraperitoneal, 200 µmol/kg).
For `Cc1c(C(=O)Nc2ccn(C)n2)ncn1Cc1cccc(C(F)(F)F)c1`, “pole test performance” read “no effect” (human WT αS transgenic mouse; dose not given; relative to: placebo).
With `COc1ccc(C2CC(c3ccc(C)cc3)=Nc3ccccc3S2)cc1` (centres unmarked) the blood glucose was 191 ± 4.07 mg/dL (Wistar rat, STZ-induced diabetes; oral, 10 mg/kg once daily, day 14).
Under “retinal vascular permeability”, `CC[C@@H](C)[C@H]1NC(=O)[C@@H]([C@H](C)O)NC(=O)[C@@H](Cc2c[nH]cn2)NC(=O)CNC(=O)[C@@H](CCCNC(=N)N)NC(=O)CNC(=O)[C@@H](Cc2ccccc2)NC1=O` is recorded as “decreased” (Evans blue; rat, STZ diabetic for 6 weeks; eye drop, 0.5% once daily, 5 days).
Under “enthalpy of activation”, `NC(=O)CC[C@H](N)C(=O)N1CCC[C@H]1C(=O)NCC(=O)NCC(=O)O` is recorded as 83 ± 11 kJ/mol (diketopiperazine formation, transition state theory; 1-propanol; concentration not given, 70, 80, 90 °C, 0.5% acetic acid).
`N#Cc1ccc(-c2cc(=O)c3ccc4[nH]c(C(F)(F)F)nc4c3o2)cc1`: “mature active delta-secretase level” “decreased” (immunoblotting; 5xFAD mice, brain; dose not given).
`[2H]C([2H])([2H])C(c1cc2nnc(-c3cc(F)ccc3F)n2nc1OCc1ncnn1C)(C([2H])([2H])[2H])C([2H])([2H])[2H]`: “spike-wave discharge rate” “decreased” (GAERS rats; oral, 0.075 mg/kg, 10 to 130 min; relative to: vehicle).
`C=CCC1C(=O)C=C(OC)C2(OC)C(C)C(c3ccc4c(c3)OCO4)OC12` (single isomer, unassigned; (-)): mRNA level “decreased” (refers to: collagen 1α, α-SMA, TGF-β; mouse, bile duct ligation, liver; dose not given).
With `Cn1c(=O)c(=O)n(C)c2cc(S(=O)(=O)Nc3ccc(S(=O)(=O)Nc4ncccn4)cc3)ccc21` the blood glucose was 98.3 ± 8.11 mg/dL (IPGTT; HFD/STZ diabetic male albino mice; 10 mg/kg, 3 h).
`O=C(O)CNC(=O)CNC(=O)[C@@H]1CCCN1C(=O)[C@@H]1CCCN1` — result for “enthalpy of activation”: 75 ± 1 kJ/mol (diketopiperazine formation, transition state theory; 1-propanol; concentration not given, 70, 80, 90 °C, 0.5% acetic acid).

A few entries again:
With `FC(F)(F)Oc1ccc(/N=c2\oc3ccccc3cc2-c2ccccc2)cc1` the oedema reduction was 27.9 ± 2.5% (rat, formalin paw oedema; intraperitoneal, 10 mg/kg, 1 h).
With `Cn1c(=O)c(=O)n(C)c2cc(S(=O)(=O)Nc3ccc(S(=O)(=O)Nc4ncccn4)cc3)ccc21` the blood glucose was 98.3 ± 8.11 mg/dL (IPGTT; HFD/STZ diabetic male albino mice; 10 mg/kg, 3 h).
